Measurements gathered from unrelated publications.
Lines come from different studies, so protocols differ. ± marks the error that the study gave.

Compound | test system | conditions | tissue uptake
Cc1cc(C)n(CCN(CCN)CCCCCCNC(=O)[C@@H](N)Cc2c[nH]cn2)n1.[99Tc+].[C-]#[O+].[C-]#[O+].[C-]#[O+] | BALB/c nude mice, A549 xenograft, spleen | intravenous, 15 min | 0.63 ± 0.02 %IA/g
COc1cccc(OC)c1-c1cc(C(=O)NC2(C(=O)O)C3CC4CC(C3)CC2C4)nn1-c1ccc(C(=O)NCCNC(=O)[C@H](CCCCNC(=O)[C@H](CC(C)C)NC(=O)C2OC2C(=O)O)NC(=O)CN2CCN(CC(=O)[O-])CCN(CC(=O)[O-])CCN(CC(=O)[O-])CC2)cc1C(C)C.[177Lu+3] (mixture of isomers) | mouse HT-29 xenograft, large intestine | 4 h post injection, biodistribution | 1.21 %ID/g
[11CH3]N1CCC(NC(=O)c2cc(-c3c(O)cc(O)cc3Oc3ccc([N+](=O)[O-])cc3)on2)CC1 | Wistar rat, female, healthy, spleen | intravenous, 10 min | 0.4 %ID
CC(C)Cc1ccc(C(C)C(=O)N[C@@H](CCCCNC(=O)CCOCCOCCOCCOCCOCCOCCNC(=O)CN2CCN(CC(=O)[O-])CCN(CC(=O)[O-])CCN(CC(=O)[O-])CC2)C(=O)Nc2cccc3c(C(=O)NCC(=O)N4CC(F)(F)C[C@H]4C#N)ccnc23)cc1.[177Lu+3] (stereo partly drawn) | mouse, U-87 MG tumour xenograft, kidneys | 1 h | 4.73 ± 0.92 %ID/g
[123I]c1ccc2nc(-c3ccc(-n4ccnn4)nc3)cn2c1 | Wistar rat, bone | intravenous, 14 h | not detected
COc1cccc(OC)c1-c1cc(C(=O)NC2(C(=O)O)C3CC4CC(C3)CC2C4)nn1-c1ccc(C(=O)N(C)CCOCCOCCN(C)C(=O)[C@H](CCCCNC(=O)[C@H](CC(C)C)NC(=O)C2OC2C(=O)O)NC(=O)CN2CCN(CC(=O)[O-])CCN(CC(=O)[O-])CCN(CC(=O)[O-])CC2)cc1C(C)C.[177Lu+3] (mixture of isomers) | mouse, HT-29 xenograft, brain | 72 h post injection | 0.013 %ID/g
CCCC[C@H](NC(=O)CCCCCCCNC(=O)CN1CCN(CC(=O)O)CCN(CC(=O)O)CC1)C(=O)N[C@H]1CC(=O)NCCCC[C@@H](C(N)=O)NC(=O)[C@H](Cc2c[nH]c3ccccc23)NC(=O)[C@H](CCCNC(=N)N)NC(=O)[C@@H](Cc2ccccc2)NC(=O)[C@H](Cc2c[nH]cn2)NC1=O [fluorine-18 labelled] | C57 mice B16-F10 melanoma, muscle | intravenous, 0.37 MBq, 2 h | 0.46 ± 0.68 %ID/g
O=C(O)CCCOc1ccc([18F])cc1-c1cc(-c2ccccc2C(F)(F)F)n(-c2ccccc2)n1 | mouse, bone | intravenous, dose not given, 60 min | 1.46 ± 0.38 %ID/g
COc1cccc(OC)c1-c1cc(C(=O)NC2(C(=O)O)C3CC4CC(C3)CC2C4)nn1-c1ccc(C(=O)N(C)CCOCCN(C)C(=O)[C@H](CCCCNC(=O)[C@H](CC(C)C)NC(=O)C2OC2C(=O)O)NC(=O)CN2CCN(CC(=O)[O-])CCN(CC(=O)[O-])CCN(CC(=O)[O-])CC2)cc1C(C)C.[177Lu+3] (mixture of isomers) | mouse, HT-29 xenograft, muscle | 4 h post injection | 0.31 %ID/g

A few entries again:
Compound | test system | conditions | tissue uptake
Cc1cc(C)n(CCN(CCN)CCCCCCNC(=O)[C@@H](N)Cc2c[nH]cn2)n1.[99Tc+].[C-]#[O+].[C-]#[O+].[C-]#[O+] | BALB/c nude mice, A549 xenograft, spleen | intravenous, 15 min | 0.63 ± 0.02 %IA/g
